Results pooled from the literature.
Several values in a cell are separate wells, animals, samples, runs or records. ± marks the error that the study gave.
UniProt P37231, sequence (whole entry, looked up): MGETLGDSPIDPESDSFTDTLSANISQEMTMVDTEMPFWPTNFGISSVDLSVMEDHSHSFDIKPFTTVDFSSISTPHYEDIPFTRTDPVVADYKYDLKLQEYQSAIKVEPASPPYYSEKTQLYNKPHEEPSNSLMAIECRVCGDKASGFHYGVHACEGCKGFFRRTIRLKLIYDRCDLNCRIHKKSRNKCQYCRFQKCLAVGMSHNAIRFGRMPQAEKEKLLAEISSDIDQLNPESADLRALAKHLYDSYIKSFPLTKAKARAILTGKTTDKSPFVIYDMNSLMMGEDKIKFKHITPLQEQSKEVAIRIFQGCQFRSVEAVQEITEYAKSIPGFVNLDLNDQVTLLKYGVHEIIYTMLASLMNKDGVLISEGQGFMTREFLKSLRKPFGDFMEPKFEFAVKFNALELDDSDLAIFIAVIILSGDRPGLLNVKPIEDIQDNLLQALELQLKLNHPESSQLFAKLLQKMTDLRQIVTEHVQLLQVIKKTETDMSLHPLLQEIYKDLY

CC(=O)c1c(C)c2cnc(Nc3ccc(N4CCNCC4)cn3)nc2n(C2CCCC2)c1=O — AUC(0-t) (G-Smo medulloblastoma mice (hGFAP-Cre x SmoM2), medulloblastoma tumour; intraperitoneal, 25 mg/kg single, dosed at postnatal day P10): 45100 ng·h/mL
CCCCN1C(=O)c2cccc3c(NCCCCCN4CCOCC4)ccc(c23)C1=O — fluorescence lifetime (dichloromethane): 10.4 ns
COc1cccc(OC)c1-c1cc(C(=O)NC2(C(=O)O)C3CC4CC(C3)CC2C4)nn1-c1ccc(C(=O)NCCNC(=O)[C@H](CCCCNC(=O)[C@H](CC(C)C)NC(=O)C2OC2C(=O)O)NC(=O)CN2CCN(CC(=O)[O-])CCN(CC(=O)[O-])CCN(CC(=O)[O-])CC2)cc1C(C)C.[177Lu+3] (mixture of isomers) — tissue uptake (mouse HT-29 xenograft, large intestine; 24 h post injection, biodistribution): 0.37 %ID/g
O=C(Nc1cnccc1-c1ccc([18F])cc1)c1ccnc(NC(=O)C2CC2)c1 — SUV (mice, transgenic, GSK-3β, early-stage, large intestine; intravenous, dose not given, 120 min, together with: tariquidar 15 mg/kg i.v. pre-dose): 0.37
CCCC[C@H]1C(=O)N(C)[C@@H](CCCC)C(=O)N[C@@H](CCCCNC(=S)Nc2ccc(CN3CCN(CC(=O)O)CCN(CC(=O)O)CC3)cc2)C(=O)N[C@H](C(=O)NCC(N)=O)CSCC(=O)N[C@@H](Cc2ccc(O)cc2)C(=O)N(C)[C@@H](C)C(=O)N[C@@H](CC(N)=O)C(=O)N2CCC[C@H]2C(=O)N[C@@H](Cc2cnc[nH]2)C(=O)N[C@@H](CCC(=O)O)C(=O)N2C[C@H](O)C[C@H]2C(=O)N[C@@H](Cc2c[nH]c3ccccc23)C(=O)N[C@@H](CO)C(=O)N[C@@H](Cc2cn(CC(=O)O)c3ccccc23)C(=O)N1C [fluorine-18 labelled] — tumour uptake (H226 subcutaneous xenograft, NSG mouse, tumour; intravenous, 60 min): 5.12 ± 2.57 %ID/g
CCc1cnc(NC(=O)c2cc(S(=O)(=O)N3CCOCC3)ccc2N(C)C2CCCC2)s1 — BUN (mouse, serum; 10 mg/kg, 3 doses): 20 mg/dL
C=C(NC(=O)c1csc(-c2nc3c(cc2O)-c2nc(cs2)C(=O)NC(C(C)O)C(=O)NC(=C(C)OC)c2nc(cs2)C(=O)NC2c4nc(cs4)C(=O)NC(COC(=O)c4c5c6c(cccc6n4O)COC(=O)C(OC4CC(C)(O)C(N(C)C)C(C)O4)C2OC5)c2nc-3cs2)n1)C(N)=O (stereo not drawn) — Tmax (cynomolgus monkey, female, plasma; intravenous infusion, 3 mg/kg multiple doses, day 7): 0.06 h
CN1CCC[C@]1(C)/C=C/S(=O)(=O)NC(=O)Nc1c2c(cc3c1CC(O)C3)CCC2 (stereo partly drawn) — Tmax at second steady-state dose (human, plasma; oral, 12.5 mg twice daily of parent drug, day 14, metabolite of dosed drug): 4 h
CCC1CNC(CC)CN(C(C(=O)[O-])c2ccc(C(=O)[O-])cc2)C(CC)CN(CC(=O)[O-])C(CC)CN1.[Mn+2] (stereo not drawn) — Mn content (ICP-MS; BALB/c mouse, blood; intravenous, 0.05 mmol/kg, 30 min, without anaesthesia): 0.23 ± 0.11 µg/g
C[C@H](CCC(=O)NCC(=O)O)[C@H]1CC[C@H]2[C@@H]3[C@H](O)C[C@@H]4C[C@H](OS(=O)(=O)O)CC[C@]4(C)[C@H]3CC[C@]12C — Cmin (human, plasma; control): 35.3 ± 5.7 nM
COc1ccc(Nc2nc(Nc3ccc(OCCOCC[18F])cc3)ncc2Br)cc1 — uptake ratio (ICR mice, S180 tumour; intravenous, 370 kBq, 120 min; reference: tumour over muscle): 1.56
COCC1CN(C2CCN(c3cc(OC)c(Nc4ncc(Br)c(Nc5ccc6c(c5P(C)(C)=O)OCCO6)n4)cc3C)CC2)C1 — serious adverse events (first-in-human trial; human; oral, 10 mg once daily; treatment-related): 0%
C=CC(=O)Nc1cc(Nc2nccc(-c3cn(C)c4ccccc34)n2)c(OC)cc1N(C)CCNC — recovery (storage stability; human dried blood spot; 30 d, on ice, LQC level): 40%
CC(C(=O)O)n1nc(Cn2cc3cc(OCC[18F])c(Cl)cc3n2)c2ccccc2c1=O (racemic) — tracer uptake (rat, blood; 1 h): 0.46 %ID/g
CC(C)[C@H](NC(=O)[C@H](Cc1c[nH]c2ccccc12)NC(=O)[C@H](CCCNC(=N)N)NC(=O)[C@H](CCCNC(=N)N)NC(=O)[C@@H](NC(=O)[C@@H](NC(=O)[C@H](CCCNC(=N)N)NC(=O)[C@@H](NC(=O)[C@@H](NC(=O)[C@H](CCCNC(=N)N)NC(=O)[C@H](CCCNC(=N)N)NC(=O)[C@@H](NC(=O)[C@H](Cc1c[nH]c2ccccc12)NC(=O)[C@H](CCCNC(=N)N)NC(=O)[C@H](CCCNC(=N)N)NC(=O)[C@@H](NC(=O)[C@H](CCCNC(=N)N)NC(=O)[C@H](CCCNC(=N)N)NC(=O)[C@@H](NC(=O)[C@H](Cc1c[nH]c2ccccc12)NC(=O)[C@H](CCCNC(=N)N)NC(=O)[C@@H](N)CCCNC(=N)N)C(C)C)C(C)C)C(C)C)C(C)C)C(C)C)C(C)C)C(C)C)C(=O)N[C@@H](CCCNC(=N)N)C(=O)N[C@@H](CCCNC(=N)N)C(=O)O — urine volume (CD1 mouse, urine; intravenous, 15 mg/kg, 0 to 16 h, [14C]-labelled compound): 229 µL/day/g body weight
CCCCCCCOc1ccc(CC[C@](N)(CO)COP(=O)(O)O)cc1C(F)(F)F — Tmax (healthy male humans, plasma; 0.125 mg amiselimod, day 21, median): 8 h
Cc1nn(-c2nc3c(F)cc(F)cc3s2)c(O)c1C(c1ccc(C(F)(F)F)cc1)c1c(C)nn(-c2nc3c(F)cc(F)cc3s2)c1O — dose-normalised AUC(0-t) (male ICR mouse, plasma; oral, 50 mg/kg): 7220 kg·ng·h/mL/mg and 7620 kg·ng·h/mL/mg and 7070 kg·ng·h/mL/mg
CC(C)(c1cc(Br)c(O)c(Br)c1)c1cc(Br)c(O)c(Br)c1 — milk fat partition ratio (cow whole milk; 200 nM; reference: milk fat over skim milk): 22.7
CC(C)OCCOCc1ccc(OCC(O)CN(N=O)C(C)C)cc1 (stereo not drawn) — fold change (duplex sequencing, measured: mutation frequency; NMRI mouse, liver; oral, 29.85 mg/kg/day, 4 weeks; reference: vehicle): 1.04
C#CCNC(=O)C(CC(C)(C)F)NC(c1ccc(-c2ccc(S(C)(=O)=O)cc2)cc1)C(F)(F)F (stereo not drawn) — cysteine adduct formation (PBS; 100 µM, 23 h, pH 7.45, 37 °C, together with: cysteine 10 mM): 0%
O=C(OC(C(F)(F)F)C(F)(F)F)N1CCC(CNS(=O)(=O)c2ccc(Cl)cc2)CC1 — Tlast (CB17 SCID mice, male, brain; oral, 30 mg/kg): 24 h
CC(=O)N[C@H](CC(=O)O)C(=O)N[C@H](Cc1c[nH]c2ccccc12)C(=O)N[C@H](Cc1ccccc1)C(=O)N[C@H](CCCCN)C(=O)N[C@H](C)C(=O)N[C@H](Cc1ccccc1)C(=O)N[C@H](Cc1ccc(O)cc1)C(=O)N[C@H](CC(=O)O)C(=O)N[C@H](CCCCN)C(=O)N[C@@H](C(=O)N[C@H](C)C(=O)N[C@H](CCC(=O)O)C(=O)N[C@H](CCCCN)C(=O)N[C@H](Cc1ccccc1)C(=O)N[C@H](CCCCN)C(=O)N[C@H](CCC(=O)O)C(=O)N[C@H](C)C(=O)N[C@H](Cc1ccccc1)C(N)=O)C(C)C — plasma concentration (human, plasma; oral, dose not given, 0.25 h post-dose, day 13): 71.1 ng/mL
[123I]c1ccc2nc(-c3ccc(-n4ccnn4)nc3)cn2c1 — tracer uptake (male Wistar rat, heart; intravenous, 4 MBq, 5 min): 0.685 %ID/g
Cn1c2cc([S+](C)[O-])sc2c2cnn(Cc3cccc(N)c3)c(=O)c21 (stereo not drawn) — Cmax (male BALB/c mouse, plasma; oral, 10 mg/kg, single dose): 10200 ng/mL
C=CC(=O)Nc1cc(Nc2nccc(-c3c[nH]c4ccccc34)n2)c(OC)cc1N(C)CCN(C)C — recovery (human plasma; 24 h, storage stability, medium QC sample): 58.8%
Cc1ccc2c(C#N)ccc(O)c2n1 — pKa (capillary electrophoresis): 7.6
Cc1cc(-c2ccc(C(=O)[C@@H]3CCCC[C@H]3C(=O)Nc3cnn4c3C(=O)NCC4)cc2)[nH]n1 — cumulative recovery of radioactivity (human, faeces; oral, 200 mg, 0-216 h; reference: dose): 78.8%
CN[C@H](CC(C)C)C(=O)N[C@H]1C(=O)N[C@@H](CC(N)=O)C(=O)N[C@H]2C(=O)N[C@H]3C(=O)N[C@H](C(=O)N[C@H](C(=O)N[C@H](CCCNC(=N)N)C(N)=O)c4cc(O)cc(O)c4-c4cc3ccc4O)[C@H](O)c3ccc(c(Cl)c3)Oc3cc2cc(c3O[C@@H]2O[C@H](CO)[C@@H](O)[C@H](O)[C@H]2O[C@H]2C[C@](C)(N)[C@H](O)[C@H](C)O2)Oc2ccc(cc2Cl)[C@H]1O — Cmax (female CD-1 mouse, plasma; intravenous, 15 mg/kg, single dose): 36700 ng/mL
COc1cccc(OC)c1-c1cc(C(=O)NC2(C(=O)O)C3CC4CC(C3)CC2C4)nn1-c1ccc(C(=O)N(C)CCOCCOCCN(C)C(=O)[C@H](CCCCNC(=O)[C@H](CC(C)C)NC(=O)C2OC2C(=O)O)NC(=O)CN2CCN(CC(=O)[O-])CCN(CC(=O)[O-])CCN(CC(=O)[O-])CC2)cc1C(C)C.[177Lu+3] (mixture of isomers) — tumour-to-heart ratio (mouse, HT-29 xenograft; 24 h post injection, biodistribution; reference: tumour over heart uptake): 7.5
O=C(CCc1cn(CCOCCOCCOCC[18F])nn1)Nc1ccc(-c2nnc(-c3ccccn3)nn2)nc1 — tumour to muscle ratio (BALB/c nude mouse, LS174T xenograft; intravenous, 1 h, together with: CC49-TCO 72 h before): 2.3
C=Cc1c(C)c2cc3nc(c(CC(=O)OCCOCCOCCOC)c4[nH]c(cc5nc(cc1[nH]2)C(C)=C5CC)c(C)c4C(=O)OCCOCCOCCOC)[C@@H](CCC(=O)OCCOCCOCCOC)[C@@H]3C — compound loss (LC-MS; methanol-water 9:1; 5 min, pH 2.0): 25%
Cc1c(Cc2cc(Cl)cc(OC(C)C(=O)O)c2)c2ccc(C(=O)NC(C)c3ccc(C(C)(C)C)cc3)cc2n1C(C)C (stereo not drawn) — IC50 (Peroxisome proliferator-activated receptor gamma (PPARG, Homo sapiens, UniProt P37231); ligand displacement, TR-FRET): 220 nM
O=C(NS(=O)(=O)c1cccs1)c1cc2ccccc2n1Cc1ccc(Br)c2ccccc12 — body weight (KM mouse, chronic hyperuricaemia model; dose not given, day 5): 28 g and 24.9 g and 29.2 g and 28.4 g and 27 g and 26.8 g
COC1CN([C@H]2CC[C@H]([C@@]3(C)Oc4c(Cl)cc(C(=O)NCc5c(SC)cc(C)[nH]c5=O)c(C)c4O3)CC2)C1 — log2 fold change (RNA-seq, measured: POLN; human, whole blood; dose not given, 24 h; reference: pretreatment baseline): 1.04
CCCC[C@H](NC(=O)CNC(=O)CNC(=O)[C@H](CCCCNC(=O)[C@H](CC(N)=O)NC(=O)C(C)c1ccc(CC(C)C)cc1)NC(=O)CN1CCN(CC(=O)O)CCN(CC(=O)O)CCN(CC(=O)O)CC1)C(=O)N[C@H]1CC(=O)NCCCC[C@@H](C(N)=O)NC(=O)[C@H](Cc2c[nH]c3ccccc23)NC(=O)[C@H](CCCNC(=N)N)NC(=O)[C@@H](Cc2ccccc2)NC(=O)[C@H](Cc2c[nH]cn2)NC1=O (stereo partly drawn) [lutetium-177 labelled] — tumour-to-tissue ratio (C57 mice, tumour; 2 h; reference: muscle): 50.1
C=CC(=O)Nc1cc(Nc2nccc(-c3cn(C4CC4)c4ccccc34)n2)c(OC)cc1N(C)CCNC — relative error (autosampler stability; rat plasma; 1 ng/mL, 4 h, 10 °C; reference: nominal concentration): 12.6%
CN1CCC[C@]1(C)/C=C/S(=O)(=O)NC(=O)Nc1c2c(cc3c1CCC3)CCC2 — subjects with adverse event (measured: general and administration site disorders; human; oral, 50 mg twice daily, 14 days, multiple ascending dose): 16.7%
CN(CCCO)Cc1ccc(-c2noc(-c3ccc(OCC[18F])c(C(F)(F)F)c3)n2)cc1F — tissue uptake (Sprague-Dawley rats, male, lung; 5 min post-injection): 9.32 ± 0.94 %ID/g
COc1ccnc(C(=O)N[C@H]2COC(=O)[C@H](Cc3ccccc3)[C@@H](OC(=O)C(C)C)[C@H](C)OC2=O)c1O — DT50 (aerobic dark soil incubation; sandy loam soil; 20 °C, modelling endpoint): 29.3 days
Cc1cc(C)n(CCN(CCN)CCCCCCNC(=O)[C@@H](N)Cc2c[nH]cn2)n1.[99Tc+].[C-]#[O+].[C-]#[O+].[C-]#[O+] — tumour-to-tissue ratio (BALB/c nude mice A549 xenograft; intravenous, 4 h; reference: tumour over blood): 3
CN(O)C(=O)CCC(=O)NCCCN(CCCCN(CCCNC(=O)CCC(=O)N(C)O)C(=O)CCC(=O)N(C)O)C(=O)CCC(=O)N(C)O.[89Zr] — intact complex (radio-TLC; aqueous buffer; 3 d, pH 5, 37 °C, 89Zr-labelled complex, together with: DTPA 1000-fold excess): 83.1 ± 4%
CC[C@H](C)[C@@H]1NC(=O)[C@H](Cc2ccc(O)cc2)NC(=O)CCCSC[C@@H](C(=O)N(CC(=O)N[C@@H](CC(C)C)C(=O)NCC(N)=O)Cc2ccc(F)cc2)NC(=O)[C@H](CC(N)=O)NC(=O)[C@H](CCC(N)=O)NC1=O — serious adverse events (human; intranasal, 100 µg single dose): 0%
